Assay results collected from several papers.
Protocols differ between the studies behind these lines. ≈ marks a conversion by molar mass, not a printed value.

Structure (SMILES)	organism	assay	test system	conditions	how to read	endpoint	result
Cc1nc(C2CCN(C(=O)c3ccc(OC(F)(F)F)cc3N)CC2)c2ncc(N3CCN(C)CC3)cc2n1	murine hepatitis virus	viral replication, nanoluciferase reporter	DBT	1 µM, 10 h	relative to: DMSO vehicle	inhibition	16%
O=[N+]([O-])c1cc2c(ccc3c4cc([N+](=O)[O-])oc4ccc23)o1	Mycobacterium avium subsp. hominissuis	REMA	ATCC 25291	–	–	MIC90	16 µg/mL (≈ 53.7 µM)
Cc1c2c(nn1C)CSCc1cc(n(C)n1)CSc1cc(c3ccccc3c1)OCCCc1c(C(=O)O)n(C)c3c-2c(Cl)ccc13	Staphylococcus aureus	label-free quantitative proteomics, item: SAOUHSC_00864 protein	SA113	concentration not given	relative to: untreated control	log2 fold change	-5.3
COc1cc2oc([N+](=O)[O-])cc2c2ccccc12	Enterobacter cloacae	REMA	–	–	–	MIC90	> 32 µg/mL
Nc1ncnc2c1ncn2[C@@H]1O[C@@H]2COP(=O)(O)O[C@H]3[C@@H](O)[C@H](n4cnc5c(=O)[nH]cnc54)O[C@@H]3COP(=O)(O)O[C@H]2[C@H]1O	West Nile virus	RNA sequencing, item: innate immune system R-HSA-168249	HFF-1 cells	concentration not given, upregulated pathway	relative to: WNV-infected untreated cells	fold enrichment	1.91
Cc1c[nH]c2nccc(Oc3c(F)cc(Nc4cc(Cl)nc(N)n4)cc3F)c12	murine hepatitis virus	viral replication, nanoluciferase reporter	DBT	1 µM, 10 h	relative to: DMSO vehicle	inhibition	51%
CC[C@H](CC[C@@H](C)[C@H]1CC[C@H]2[C@@H]3CCC4=CC(=O)CC[C@]4(C)[C@H]3CC[C@]12C)C(C)C	Leishmania mexicana	propidium iodide flow cytometry	promastigotes	concentration not given, 48 h	–	antileishmanial activity	inactive
Cc1cccc(-c2cnc3occ(-c4ccc(C(=O)O)c(C5CCCC5)c4)c3c2)c1	murine hepatitis virus	viral replication, nanoluciferase reporter	DBT	1 µM, 10 h	relative to: DMSO vehicle	inhibition	15%
CC(=O)O[C@H]1C[C@H](O[C@H]2[C@@H](O)C[C@H](O[C@H]3[C@@H](O)C[C@H](O[C@H]4CC[C@@]5(C)[C@H](CC[C@@H]6[C@@H]5C[C@@H](O)[C@]5(C)[C@@H](C7=CC(=O)OC7)CC[C@]65O)C4)O[C@@H]3C)O[C@@H]2C)O[C@H](C)[C@H]1O[C@@H]1O[C@H](CO)[C@@H](O)[C@H](O)[C@H]1O	human alphaherpesvirus 1	live-cell GFP imaging	primary human keratinocytes, K26 GFP	–	–	IC50	0.09 µM
C[C@H](NC(=O)[C@H](CCCNC(=N)N)NC(=O)[C@H](Cc1c[nH]c2ccccc12)NC(=O)[C@H](CCCNC(=N)N)NC(=O)[C@H](Cc1c[nH]c2ccccc12)NC(=O)[C@H](Cc1c[nH]c2ccccc12)NC(=O)[C@H](Cc1c[nH]c2ccccc12)NC(=O)[C@H](CCCNC(=N)N)NC(=O)[C@H](Cc1c[nH]c2ccccc12)NC(=O)[C@H](CCCNC(=N)N)NC(=O)CN)C(N)=O	Candida albicans	broth microdilution	CGMCC 2.209, RPMI 1640-MOPS	48 h, 30 °C, together with: CaCl2 2 mM	–	MIC	32 µM (≈ 54.4 µg/mL)
Cn1c(=O)ccc2ccc(F)c(CCNC[C@H]3CN(c4cnc5c(n4)NC(=O)CO5)C(=O)O3)c21	Morganella morganii	–	–	–	–	MIC90	0.5 µg/mL (≈ 1.07 µM)
O=C1NC(=O)C(c2cnc3ccccn23)=C1c1cn2c3c(cc(F)cc13)CN(C(=O)N1CCCCC1)CC2	Aspergillus fumigatus	–	–	20 µM	relative to: untreated	metabolic activity	≥ 80%
CC[C@H](C)[C@H](NC(=O)[C@H](C)NC(=O)[C@H](CCCCN)NC(=O)[C@H](CC(C)C)NC(=O)[C@H](C)NC(=O)[C@@H](NC(=O)[C@H](Cc1c[nH]cn1)NC(=O)[C@H](CC(C)C)NC(=O)[C@@H](NC(=O)[C@@H](NC(=O)[C@H](CCCCN)NC(=O)[C@H](C)NC(=O)[C@H](C)NC(=O)[C@H](CO)NC(=O)[C@H](CCCCN)NC(=O)[C@H](Cc1ccccc1)NC(=O)[C@@H](NC(=O)[C@H](CCCCN)NC(=O)[C@H](CC(C)C)NC(=O)[C@H](Cc1ccccc1)NC(=O)[C@H](CO)NC(=O)[C@H](CCCCN)NC(=O)[C@H](Cc1c[nH]c2ccccc12)NC(=O)[C@H](CCCCN)NC(C)=O)[C@@H](C)O)[C@@H](C)O)C(C)C)[C@@H](C)O)C(=O)N[C@@H](CO)C(=O)N[C@@H](CO)C(N)=O	Klebsiella pneumoniae	–	ATCC 1705	–	–	MBC90	16 µg/mL (≈ 5.45 µM)
CS(=O)(=O)CCCn1c(Cn2c(=O)n(CC(F)(F)F)c3ccncc32)cc2cc(Cl)ccc21	respiratory syncytial virus	RT-qPCR	hospitalized infants 1-24 months, nasal swab	oral, 2, 1.5 or 1 mg/kg daily, day 5, low dose by age cohort	relative to: baseline	LS mean viral load change	-4.27 log10 copies/mL
CCCC(CCC)C(=O)Nc1ccccc1O	Artemia franciscana	LC-MS/MS metabolomics, item: 1-aminocyclopropanecarboxylic acid	larvae	concentration not given, 48 h, LC10 concentration	relative to: vehicle	fold change	1.76
Cc1ccc(C(=O)Nc2cccc(C(F)(F)F)c2)cc1Nc1nc(-c2cccnc2)nc2c1cnn2C	murine hepatitis virus	viral replication, nanoluciferase reporter	DBT	1 µM	relative to: DMSO vehicle	inhibition	57%
CO/N=C(\C(=O)N[C@@H]1C(=O)N2C(C(=O)O)=C(CSC(=O)c3ccco3)CS[C@H]12)c1csc(N)n1	Staphylococcus aureus	–	CAAS-2019-CAAS-2019-02 clinical drug-resistant isolate, 25% plasma	–	–	MBC	8 µg/mL
CC(=O)N1CCN(c2ccc(OCC3COC(Cn4ccnc4)(c4ccc(Cl)cc4Cl)O3)cc2)CC1 (stereo not shown)	Candida albicans	broth microdilution	CGMCC 2.209, RPMI 1640-MOPS	48 h, 30 °C	–	MIC	8 µM (≈ 4.25 µg/mL)
COc1ccc2[nH]c3c4[nH]c5ccc(OC)cc5c4c4c(c3c2c1)C(=O)NC4=O	Aspergillus fumigatus	–	–	20 µM	relative to: untreated	metabolic activity	≥ 80%
C[C@@H]1CN(c2cc(-c3n[nH]c4ccc(OC5(C)CC5)cc34)ncn2)C[C@H](C)O1	murine hepatitis virus	viral replication, nanoluciferase reporter	DBT	1 µM	relative to: DMSO vehicle	inhibition	37%
Cn1cc(C2=C(c3ccc(Cl)cc3Cl)C(=O)NC2=O)c2ccccc21	Aspergillus fumigatus	–	–	20 µM	relative to: untreated	metabolic activity	≥ 80%
CN1CCN(Cc2ccc(Nc3ncc(Cl)c(Nc4ccccc4S(=O)(=O)N(C)C)n3)cc2)CC1	murine hepatitis virus	viral replication, nanoluciferase reporter	DBT	1 µM, 10 h	relative to: DMSO vehicle	inhibition	30%
CCc1c([N+](=O)[O-])oc2ccc3ccccc3c12	Mycobacterium avium subsp. hominissuis	REMA	ATCC 25291	–	–	MIC90	4 µg/mL (≈ 16.6 µM)
COc1cc(Nc2ccnc3ccc(Br)cc23)cc(OC)c1OC	murine hepatitis virus	viral replication, nanoluciferase reporter	DBT	1 µM, 10 h	relative to: DMSO vehicle	inhibition	4%
C[C@H](NC(=O)[C@H](CCCNC(=N)N)NC(=O)[C@H](Cc1c[nH]c2ccccc12)NC(=O)[C@H](CCCNC(=N)N)NC(=O)[C@H](Cc1c[nH]c2ccccc12)NC(=O)[C@H](Cc1c[nH]c2ccccc12)NC(=O)[C@H](Cc1c[nH]c2ccccc12)NC(=O)[C@H](CCCNC(=N)N)NC(=O)[C@H](Cc1c[nH]c2ccccc12)NC(=O)[C@@H](N)CCCNC(=N)N)C(N)=O	Candida albicans	broth microdilution	CGMCC 2.209, RPMI 1640-MOPS	48 h, 30 °C, together with: NH4Cl 6 µM	–	MIC	4 µM (≈ 6.58 µg/mL)

Some of these lines once more:
Structure (SMILES)	organism	assay	test system	conditions	how to read	endpoint	result
CO/N=C(\C(=O)N[C@@H]1C(=O)N2C(C(=O)O)=C(CSC(=O)c3ccco3)CS[C@H]12)c1csc(N)n1	Staphylococcus aureus	–	CAAS-2019-CAAS-2019-02 clinical drug-resistant isolate, 25% plasma	–	–	MBC	8 µg/mL
CC(=O)N1CCN(c2ccc(OCC3COC(Cn4ccnc4)(c4ccc(Cl)cc4Cl)O3)cc2)CC1 (stereo not shown)	Candida albicans	broth microdilution	CGMCC 2.209, RPMI 1640-MOPS	48 h, 30 °C	–	MIC	8 µM (≈ 4.25 µg/mL)
COc1ccc2[nH]c3c4[nH]c5ccc(OC)cc5c4c4c(c3c2c1)C(=O)NC4=O	Aspergillus fumigatus	–	–	20 µM	relative to: untreated	metabolic activity	≥ 80%
